Measurements of several laboratories.
Each numbered part is a random draw from the data of one study; scales do not carry over between parts. Substitutions count along the parent as printed.

Series 1
Target: ABI1, truncated, D143A, DHFR fusion (Arabidopsis thaliana)
Technique: DHFR PCA, deep sequencing
Matrix: yeast
Notes: methotrexate growth selection, single substitutions
Together with: (+)-ABA 710 µM
Reference: wild-type fitted maximum
Reading: higher = stronger binding
Starting sequence: PYL1, truncated, DHFR fusion (Arabidopsis thaliana); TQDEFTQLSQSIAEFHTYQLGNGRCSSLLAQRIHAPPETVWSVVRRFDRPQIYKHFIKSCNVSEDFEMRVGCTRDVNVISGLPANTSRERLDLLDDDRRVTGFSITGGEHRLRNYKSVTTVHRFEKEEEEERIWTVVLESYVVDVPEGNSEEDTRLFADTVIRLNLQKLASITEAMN
Under “relative binding score”, `E67F` is recorded as 99.2%.
`L166P` — result for “relative binding score”: 22.9%.
For `N114T`, “relative binding score” read 67%.
`V76E`: “relative binding score” -8.17%.
For `E14S`, “relative binding score” read 89.9%.
For `S150E`, “relative binding score” read 87.2%.
`E174G` — result for “relative binding score”: 92.9%.
Under “relative binding score”, `S26Q` is recorded as 102%.
`E139S` — result for “relative binding score”: 96.7%.
`H16C`: “relative binding score” 21.3%.
For `S87G`, “relative binding score” read 40.8%.
For `K126T`, “relative binding score” read 112%.
Under “relative binding score”, `L29F` is recorded as 75.5%.
`R74Y`: “relative binding score” -28.8%.
For `R132K`, “relative binding score” read 117%.
`E129D`: “relative binding score” 109%.
For `R32L`, “relative binding score” read 93.3%.
For `I12Q`, “relative binding score” read 90.7%.
For `H16Y`, “relative binding score” read -12.6%.
For `V136E`, “relative binding score” read 84.3%.
`D3V` — result for “relative binding score”: 95.4%.
For `E67W`, “relative binding score” read 96.6%.
`R90H` — result for “relative binding score”: 93.8%.
`P36V` — result for “relative binding score”: 92.2%.

Series 2
Target: CCNA2, cyclin fold, Cln2 fusion (human)
Technique: yeast growth competition, sequencing
Matrix: yeast
Notes: strong parent motif
Reference: not given
Reading: higher = stronger binding
Starting sequence: RBL2 docking peptide (human); STTRRRLFVENDS; partner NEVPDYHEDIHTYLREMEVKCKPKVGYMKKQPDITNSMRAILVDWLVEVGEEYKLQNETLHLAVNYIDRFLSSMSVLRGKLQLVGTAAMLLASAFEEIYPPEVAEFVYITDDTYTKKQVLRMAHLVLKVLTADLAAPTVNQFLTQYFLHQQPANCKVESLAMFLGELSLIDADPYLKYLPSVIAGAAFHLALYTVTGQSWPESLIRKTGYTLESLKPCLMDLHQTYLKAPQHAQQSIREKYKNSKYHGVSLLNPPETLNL
`SETRRRLFVENDS [T2E]`: “normalised enrichment score” 4.9.
For `CTTRRRLFVENDS [S1C]`, “normalised enrichment score” read 6.2.
`STTRSRLFVENDS [R5S]`: “normalised enrichment score” 0.583.
`STTRRRLFVEIDS [N11I]`: “normalised enrichment score” 5.03.
Under “normalised enrichment score”, `STTRRRLKVENDS [F8K]` is recorded as 0.891.
`STWRRRLFVENDS [T3W]`: “normalised enrichment score” 5.04.
For `STTRRRLWVENDS [F8W]`, “normalised enrichment score” read 2.5.
Under “normalised enrichment score”, `STTRRRLFVEHDS [N11H]` is recorded as 5.49.
For `STTRRRLDVENDS [F8D]`, “normalised enrichment score” read 1.72.
For `STTRRRLFVMNDS [E10M]`, “normalised enrichment score” read 4.77.
`STTRRRLFVENDE [S13E]` — result for “normalised enrichment score”: 5.83.
For `STIRRRLFVENDS [T3I]`, “normalised enrichment score” read 5.51.
For `ETTRRRLFVENDS [S1E]`, “normalised enrichment score” read 3.74.
`STNRRRLFVENDS [T3N]` — result for “normalised enrichment score”: 0.516.
For `SRTRRRLFVENDS [T2R]`, “normalised enrichment score” read 6.14.
For `STTRRRLFVDNDS [E10D]`, “normalised enrichment score” read 6.66.
For `STTRRRLRVENDS [F8R]`, “normalised enrichment score” read 0.901.
`STTRGRLFVENDS [R5G]` — result for “normalised enrichment score”: 0.416.
Under “normalised enrichment score”, `SWTRRRLFVENDS [T2W]` is recorded as 5.03.
`STTRRRLFVWNDS [E10W]` — result for “normalised enrichment score”: 3.48.
`SDTRRRLFVENDS [T2D]` — result for “normalised enrichment score”: 3.3.
`STTRMRLFVENDS [R5M]` — result for “normalised enrichment score”: 0.908.
`STTRRRLFVENIS [D12I]` — result for “normalised enrichment score”: 5.59.
Under “normalised enrichment score”, `STQRRRLFVENDS [T3Q]` is recorded as 1.05.
`STRRRRLFVENDS [T3R]`: “normalised enrichment score” 3.36.

Series 3
Target: Interferon regulatory factor 7, full length, phosphomimetic (IRF7, Homo sapiens, UniProt Q92985, residues 1-503, S101K/S471D/S472D/S475D/S476D/S477D/S483D/S484D/S487D)
Chain of UniProt Q92985 (whole entry, unmodified, looked up): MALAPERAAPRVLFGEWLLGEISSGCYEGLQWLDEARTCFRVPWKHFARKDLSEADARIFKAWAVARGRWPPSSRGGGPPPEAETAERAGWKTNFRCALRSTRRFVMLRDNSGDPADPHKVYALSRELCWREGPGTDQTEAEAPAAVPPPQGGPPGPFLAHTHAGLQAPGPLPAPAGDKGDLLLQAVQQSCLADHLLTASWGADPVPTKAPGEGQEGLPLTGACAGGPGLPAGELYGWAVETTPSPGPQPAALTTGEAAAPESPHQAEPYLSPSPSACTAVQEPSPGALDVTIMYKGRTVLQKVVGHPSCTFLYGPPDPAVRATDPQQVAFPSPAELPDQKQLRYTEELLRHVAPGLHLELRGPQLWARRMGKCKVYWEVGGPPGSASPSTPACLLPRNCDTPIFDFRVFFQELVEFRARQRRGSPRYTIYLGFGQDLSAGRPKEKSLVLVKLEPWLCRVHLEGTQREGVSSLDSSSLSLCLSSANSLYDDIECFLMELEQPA
Technique: protein-binding microarray
Molecule type: double-stranded DNA, one strand shown
Matrix: in vitro
Concentration: 250 nM
Notes: 60-bp whole probe
Together with: salmon DNA 0.4 mg/ml
Reference: random background probes
Reading: higher = stronger binding
Constant ends, left off below: GCCTAGCAC … GTCTTGATTCGCTTGACGCTGCTG
For `GACGATCTCAGTCTCGAGCCGTGCTAG`, the log fluorescence was -0.0805 z-score.
For `GACGGACTGGGGACTCGGGACGTGCTA`, the log fluorescence was -0.584 z-score.
`GACGGTTCCCTTTTCCTGACGTGCTAG` gave a log fluorescence of 2.72 z-score.
With `TTAGGTTTCCTAATGCTTTAGTGCTAG` the log fluorescence was 1.99 z-score.
The log fluorescence of `TCATATATATGTGTATAACTGTGCTAG` is reported as 0.441 z-score.
`TCATTTTGCCCTATTTAACTGTGCTAG` has a log fluorescence of 2.58 z-score.
The log fluorescence of `TTAGATATCGGGAATCGATTAGTGCTA` is reported as 0.556 z-score.
`TTAGAACTGCGGTATCGATTAGTGCTA` has a log fluorescence of 0.251 z-score.
The log fluorescence of `TTAGGACTGGGTATCCGTTAGTGCTAG` is reported as -0.0302 z-score.
For `TCAGGTTTACCAGATCATCTGGTGCTA`, the log fluorescence was 0.127 z-score.
The log fluorescence of `TTAGATTTCGGTTTTCGATTAGTGCTA` is reported as 7.23 z-score.
The log fluorescence of `GACGACATCAGTTTCGAGACGTGCTAG` is reported as 3.93 z-score.
`TTGGTTTTCTCTATTGCTTTGTGCTAG` has a log fluorescence of 1.01 z-score.
`TTAGATCTAAGACTGGATTAGTGCTAG` gave a log fluorescence of 0.00181 z-score.
`GACGGTATCTTTTTCCTGACGTGCTAG` gave a log fluorescence of 0.637 z-score.
`GACGATTCCAGTTTCGATACGTGCTAG` gave a log fluorescence of 7.11 z-score.
For `GACGGTTTCGAAACTGGGGACGTGCTA`, the log fluorescence was 6.91 z-score.
`TCACTTTCCTTTATGTAACTGTGCTAG` gave a log fluorescence of 2.31 z-score.
`TTAGGTCTTCTACTGCTTTAGTGCTAG` gave a log fluorescence of -0.124 z-score.

Series 4
Target: Sal-like protein 4, full length isoform B (SALL4, Homo sapiens, UniProt Q9UJQ4-2, residues 1-616)
Technique: universal PBM
Molecule type: double-stranded DNA, one strand shown
Matrix: in vitro
Concentration: not given
Notes: 8-mer, flanks averaged, mean of replicates
Reading: higher = stronger binding
Target sequence (chain): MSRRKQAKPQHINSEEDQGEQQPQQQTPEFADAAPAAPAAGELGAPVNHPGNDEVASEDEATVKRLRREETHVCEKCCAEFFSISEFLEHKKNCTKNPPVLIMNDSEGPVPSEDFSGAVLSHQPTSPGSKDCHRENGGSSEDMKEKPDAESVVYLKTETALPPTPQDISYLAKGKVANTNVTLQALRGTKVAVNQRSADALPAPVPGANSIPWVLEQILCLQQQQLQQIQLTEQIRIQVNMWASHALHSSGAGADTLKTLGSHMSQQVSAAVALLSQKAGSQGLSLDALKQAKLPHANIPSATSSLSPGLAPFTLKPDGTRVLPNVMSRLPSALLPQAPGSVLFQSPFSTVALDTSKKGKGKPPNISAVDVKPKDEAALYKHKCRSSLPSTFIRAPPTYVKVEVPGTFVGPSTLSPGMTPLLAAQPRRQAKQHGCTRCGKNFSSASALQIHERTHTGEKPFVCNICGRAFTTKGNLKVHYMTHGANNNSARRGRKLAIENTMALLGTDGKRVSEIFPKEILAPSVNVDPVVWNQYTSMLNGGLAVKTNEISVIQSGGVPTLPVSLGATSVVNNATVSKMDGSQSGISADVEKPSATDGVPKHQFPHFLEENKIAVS
The E-score of `ATTACAAG` is reported as 0.319.
The E-score of `AACCTTGG` is reported as -0.0435.
For `GGGAGGTA`, the E-score was -0.195.
The E-score of `CTCACGGA` is reported as -0.212.
With `CCGATCGG` the E-score was -0.228.
For `GCAATGTA`, the E-score was 0.0851.
`CGATCTGC` gave an E-score of -0.229.
For `CGCGTGGA`, the E-score was -0.209.
For `TATCTTCA`, the E-score was 0.263.
`AGGTAGCA` gave an E-score of -0.0364.
For `ACAGACGT`, the E-score was -0.0322.
The E-score of `AATAAGGC` is reported as 0.177.
With `ACACCCAC` the E-score was -0.213.
The E-score of `GCATTCTA` is reported as 0.152.
The E-score of `AAACTAGT` is reported as 0.077.
`TGACTGCA` has an E-score of -0.026.
For `AGTGTCGA`, the E-score was -0.0202.
`CCCACGCC` has an E-score of -0.255.
`CAATCGTG` gave an E-score of 0.0915.

Series 5
Target: Histone acetyltransferase KAT6A, winged helix 1, GST fusion (KAT6A, Homo sapiens, UniProt Q92794, residues 1-85)
Technique: protein binding microarray
Molecule type: double-stranded DNA, one strand shown
Matrix: in vitro
Concentration: not given
Notes: 8-mer, flanks averaged, mean of 2 arrays, mostly near background
Reference: not given
Reading: higher = stronger binding
Residues (chain): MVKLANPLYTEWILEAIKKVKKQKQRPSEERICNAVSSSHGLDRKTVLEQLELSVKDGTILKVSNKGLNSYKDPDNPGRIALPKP
`CCAGGCCG` gave an E-score of 0.146.
With `GGTTCCTA` the E-score was -0.225.
For `CTAGCCAG`, the E-score was -0.278.
`ACTAGTCA` gave an E-score of -0.193.
The E-score of `GATATTCC` is reported as 0.0431.
For `AGGTAGGG`, the E-score was -0.271.
`GGACCCAA` gave an E-score of -0.133.
With `ATGCCTGC` the E-score was -0.0551.
`CAAGAGAC` has an E-score of -0.161.
`CGACTTAG` has an E-score of -0.138.
With `AGCTTAAG` the E-score was -0.261.
The E-score of `GTCTTAGA` is reported as -0.0805.
With `CAGCCAGG` the E-score was -0.265.
The E-score of `TACTAGTA` is reported as -0.128.
`CATGTCGG` gave an E-score of 0.112.
With `CAAATTGC` the E-score was -0.1.
With `GGTGCGAA` the E-score was -0.0357.
`TCTTGCCA` gave an E-score of -0.287.
`CGTCAGTA` gave an E-score of -0.0101.
For `ATCTACAG`, the E-score was -0.079.

For quick reference, copied from above (series 5):
`TCTTGCCA` gave an E-score of -0.287.
`CAAGAGAC` has an E-score of -0.161.
With `ATGCCTGC` the E-score was -0.0551.
With `GGTTCCTA` the E-score was -0.225.
`ACTAGTCA` gave an E-score of -0.193.
`CATGTCGG` gave an E-score of 0.112.
The E-score of `GTCTTAGA` is reported as -0.0805.
The E-score of `TACTAGTA` is reported as -0.128.
The E-score of `GATATTCC` is reported as 0.0431.
With `CAAATTGC` the E-score was -0.1.
`CGTCAGTA` gave an E-score of -0.0101.
`CCAGGCCG` gave an E-score of 0.146.
With `AGCTTAAG` the E-score was -0.261.
For `AGGTAGGG`, the E-score was -0.271.
With `CAGCCAGG` the E-score was -0.265.
